Results pooled from the literature.
Each line is one published result; not all experiments were run side by side. pEC50, pIC50, pKd: −log10 of the molar value.
YWHAG/RELA phospho-Ser45 p65 peptide: YWHAG/RELA, phospho-Ser45 p65 peptide (Homo sapiens, UniProt P61981+Q04206)
Nuclear receptor subfamily 2 group C member 2 ligand-binding domain: Nuclear receptor subfamily 2 group C member 2, ligand-binding domain (Homo sapiens, UniProt P49116)

| Compound | target or system | test | system | setting | endpoint | value |
| --- | --- | --- | --- | --- | --- | --- |
| Cc1ncsc1-c1ccc([C@H](CC(=O)N2CCN(c3ccc(C#Cc4ccc(C(=O)N5CCC(n6cc(-c7ccc8c(c7)CCN8C(=O)Cc7cccc(OC(F)(F)F)c7)c7c(N)ncnc76)CC5)cc4)cn3)CC2)NC(=O)[C@@H]2C[C@@H](O)CN2C(=O)[C@@H](NC(=O)C2(F)CC2)C(C)(C)C)cc1 | Receptor-interacting serine/threonine-protein kinase 1 (RIPK1, Homo sapiens, UniProt Q13546) | degrader, western blot | U-937 | – | DC50 | 0.0008 µM |
| CC[C@@H]1[C@H](F)C(=O)N[C@@H]1COc1nccc2cc(C(N)=O)c(OC)cc12 | MAP/microtubule affinity-regulating kinase 4 (MARK4, Homo sapiens, UniProt Q96L34) | ATP-site probe binding, ActivX profiling | THP-1 cell lysate | Lys2 site | pIC50 | < 5.30 |
| CN1CC2c3ccccc3Oc3ccc(Cl)cc3C2C1 (centres unmarked) | 5-hydroxytryptamine receptor 1A (HTR1A, Homo sapiens, UniProt P08908, R225A) | agonist | – | – | pEC50 | 7.90 |
| O=Cc1cccc(-n2ccnc2)c1 | YWHAG/RELA phospho-Ser45 p65 peptide | ternary complex formation, stabilizer, fluorescence anisotropy | – | – | pEC50 | < 3.00 |
| NC(=O)c1cccnc1 | OCI-Ly1 | – | – | 0.5 µM, 120 h | viability | 138% |
| C=C1/C(=C\C=C2/CCC[C@]3(C)[C@@H]([C@H](C)/C=C/[C@H](C)C(C)C)CC[C@@H]23)C[C@@H](O)C[C@@H]1O | Nuclear receptor subfamily 2 group C member 2 ligand-binding domain | SPR imaging | – | – | pKd | 10.11 |
| O=Cc1ccc(S(=O)(=O)N2CCNC(=O)C2)cc1 | YWHAG/RELA phospho-Ser45 p65 peptide | ternary complex formation, stabilizer, fluorescence anisotropy | – | – | pEC50 | < 3.00 |
| O=C(O)Cc1ccccc1Nc1c(Cl)cccc1Cl | Nuclear receptor subfamily 2 group C member 2 ligand-binding domain | SPR imaging | – | – | pKd | 9.13 |
| COc1cc2c(NC3CCN(C(C)C)CC3)nc(N3CCC(F)(F)CC3)nc2cc1OCCCN1CCCC1 | OCI-Ly1 | – | – | 1 µM, 120 h | viability | 82.5% |
| COc1cc(C(=O)NS(=O)(=O)c2ccccc2C)ccc1Cc1cn(C)c2ccc(NC(=O)OC3CCCC3)cc12 | Nuclear receptor subfamily 2 group C member 2 ligand-binding domain | SPR imaging | – | – | pKd | 9.70 |
| COc1cc(C)c(NC(=O)c2ccc(C=O)cc2)cn1 | YWHAG/RELA phospho-Ser45 p65 peptide | ternary complex formation, stabilizer, fluorescence anisotropy | – | – | pEC50 | < 3.00 |
